{"data": "Measurements of several laboratories", "note": "Numbered parts are unrelated; each lists some results of a single study."}
{"data": "Block 1", "target": "RING finger protein unkempt homolog, zinc fingers 1-6, GST-SBP tag (UNK, Homo sapiens, UniProt Q9C0B0, residues 30-357)", "method": "RNA Bind-n-Seq", "molecule type": "RNA", "medium": "in vitro", "tested at": "not given", "setting": "RNA with constant flanks, human and mouse sites, ends assumed", "reference": "input RNA pool", "reading": "higher = stronger binding", "shared flanks, not repeated": "GGGAGUUCUACAGUCCGACGAUC … CAACAGAGGAUUGAGCAUCA", "Target sequence (chain)": "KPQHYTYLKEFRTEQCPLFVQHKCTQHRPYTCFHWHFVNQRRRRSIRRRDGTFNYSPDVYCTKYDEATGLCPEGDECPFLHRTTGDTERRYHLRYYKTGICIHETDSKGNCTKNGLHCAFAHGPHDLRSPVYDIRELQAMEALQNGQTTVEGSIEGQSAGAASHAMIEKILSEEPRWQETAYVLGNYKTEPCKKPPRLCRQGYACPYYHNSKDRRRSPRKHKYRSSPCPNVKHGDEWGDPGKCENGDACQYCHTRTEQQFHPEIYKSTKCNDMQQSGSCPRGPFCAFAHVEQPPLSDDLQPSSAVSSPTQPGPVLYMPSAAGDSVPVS"}
{"Sequence": "ACAUUGGGAAAUGUUUUGGUGACUGUCAAAAGGAACUUUGACAAAUGCAUUAGUAACCAAAUAAGGCAAAUGGAAGAAGUAAAGAUCUCAAAAAAGAGUAAAGUUGGAAUUCUUCCAUUU", "bound/input enrichment": "0.46 ratio"}
{"Sequence": "UGUGAAAGUGAGGGGAGGCUCCUGUCCCCCUCUCUUAAGGUCCCCAAACCUGGGAGUGCAUAGGUACUAAAUCAAGCAGUGCAACUUGUAAUUAAGCAGCUGCAGUGUUUACAUGUUUCU", "bound/input enrichment": "0.293 ratio"}
{"Sequence": "AAAUCCCCCUGCCUAUAUUAUAAUGGAUCAUGCGAUAUCAGGAUGGGGAAUGUAUGACAUGGUUUAAAAAGAACUCAUUAUAAAAAAAAAAAAACAAAAAAAAUCAAAAAUUAAAAAAAA", "bound/input enrichment": "0.431 ratio"}
{"Sequence": "GGACACGUCCGCGCGCAGUGGGAGCCCCAUGAGUAUCCGGCCAGCAUGGAGCGGAUGCAGAACUGGACCCCGGAUGAGUGCAUUCCGGAGUUCUACACCGAUCCCUCUAUCUUCCGCUCC", "bound/input enrichment": "0.0769 ratio"}
{"Sequence": "UGGAAAGAUGAAUUCAAGGCACACUCAAGGGUGAAGUGUCCAAACUCAGGGUGCUGGCUAGAGUUCCCCAGCAUCUAUGGGCUCAAGUACCACUAUCAGCGGUGCCAAGGGGUAAGGGGC", "bound/input enrichment": "0.296 ratio"}
{"Sequence": "GAGGAUGAAGAUGUAAAAGAAGCCAUAAGAAGACUUCCUGAGAACCUUUAUAAUGACAGGAUGUUUCGCAUUAAGAGGGCACUGGACCUGAACUUGAAGCAUCAGAUCUUGCCUAAAGAG", "bound/input enrichment": "0.291 ratio"}
{"Sequence": "AUUAAACAUUACUUCAGUGUAGUUCCCGGAAAUGUAGGCUCUUCCCCCAGAUCUUCUGAUUUAGUCAAAUUAGCUCAAGAAUGCUGUUACCAUAGCAACAGGGGCAUCGCAGCUCAUGGA", "bound/input enrichment": "1.73 ratio"}
{"Sequence": "AGCAUGAAAUUGUUUGACAGCAUAUGUAACAACAAGUGGUUUACAGAUACAUCCAUUAUACUUUUUCUAAACAAGAAGGAUCUCUUUGAAGAAAAAAUCAAAAAGAGCCCUCUCACUAUA", "bound/input enrichment": "0.213 ratio"}
{"Sequence": "GUCCAGUCAGAACGGCCAGCUGAGGGGCCCUGUGAAGGCCAGUGCUGGCCCUGGAGGAGGGGGCACACAGCCACAGCCACAGCUGAACCAGUUGAAGAACACCAGCACAAUCAAUAAUGG", "bound/input enrichment": "0.105 ratio"}
{"Sequence": "AACGGUGCCCCUGCAUGUGCUCAGAAGCUCUAUGCAGAACUGUGCCAAGGCAUCGUGGACAUAGCCAUUUCCAGUGUCUUCCCACCCCCAGAUGUGGAGCAACCUCAGACCCAGCCAGCU", "bound/input enrichment": "0.253 ratio"}
{"Sequence": "UGUUCCCAGAGCCCCCAGCGCAGGCCGGGAUGUUCGUCCUGGUGGAAAUGGUGGACACCGUCCGGAUCCCCCCUUGGCAGUUUGAGAGGAAGCUCAACGACUCCAUUGCCGAGGAGCUGA", "bound/input enrichment": "0.144 ratio"}
{"data": "Block 2", "target": "Histone acetyltransferase KAT6A, both winged helices, GST fusion (KAT6A, Homo sapiens, UniProt Q92794, residues 1-181)", "method": "protein binding microarray", "molecule type": "double-stranded DNA, one strand shown", "medium": "in vitro", "tested at": "not given", "setting": "8-mer, flanks averaged, mean of 2 arrays, mostly near background", "reference": "not given", "reading": "higher = stronger binding", "Residues (chain)": "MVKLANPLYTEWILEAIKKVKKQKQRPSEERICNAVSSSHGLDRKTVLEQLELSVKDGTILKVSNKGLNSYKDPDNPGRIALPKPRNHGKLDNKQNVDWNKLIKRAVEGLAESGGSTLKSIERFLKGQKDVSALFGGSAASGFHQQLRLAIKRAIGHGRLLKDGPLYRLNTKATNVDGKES"}
{"Sequence": "AGGCTTAG", "E-score": -0.113}
{"Sequence": "CCTTGGGC", "E-score": 0.00122}
{"Sequence": "TACTGCTA", "E-score": -0.168}
{"Sequence": "CATCCGGA", "E-score": 0.0582}
{"Sequence": "AGGCGTCC", "E-score": -0.0581}
{"Sequence": "TGGCAAAA", "E-score": -0.205}
{"Sequence": "CCTCAAAG", "E-score": -0.183}
{"Sequence": "GCCTATCA", "E-score": -0.106}
{"Sequence": "CGTAGTAC", "E-score": 0.073}
{"Sequence": "ACATGTTA", "E-score": -0.0956}
{"Sequence": "ATCTTTCG", "E-score": -0.169}
{"Sequence": "CATCACTC", "E-score": -0.153}
{"Sequence": "GTCTGTCA", "E-score": -0.0464}
{"Sequence": "CATTTATC", "E-score": -0.0988}
{"Sequence": "AAACGAGT", "E-score": -0.17}
{"Sequence": "CATCGATA", "E-score": 0.0647}
{"Sequence": "ATTGTGCG", "E-score": 0.226}
{"Sequence": "CGTTCAAA", "E-score": 0.0804}
{"Sequence": "CTAACGAA", "E-score": 0.0467}
{"Sequence": "CCTTACGA", "E-score": -0.0201}
{"Sequence": "CTATTTCA", "E-score": -0.0351}
{"Sequence": "ACAGACAC", "E-score": -0.03}
{"Sequence": "GAAAACTC", "E-score": -0.0396}
{"Sequence": "CAACTGTC", "E-score": -0.0614}
{"Sequence": "GGCAGTAC", "E-score": -0.0762}
{"data": "Block 3", "target": "RNA binding protein fox-1 homolog 2, RRM domain, GST-SBP tag (RBFOX2, Homo sapiens, UniProt O43251-10, residues 100-194)", "method": "RNA Bind-n-Seq", "molecule type": "RNA", "medium": "in vitro", "tested at": "365 nM", "setting": "natural RNA segment, single round, ends assumed", "reference": "no-protein control", "reading": "higher = stronger binding", "shared flanks, not repeated": "GGGAGUUCUACAGUCCGACGAUC … UGGAAUUCUCGGGUGCCAA", "Target sequence (chain)": "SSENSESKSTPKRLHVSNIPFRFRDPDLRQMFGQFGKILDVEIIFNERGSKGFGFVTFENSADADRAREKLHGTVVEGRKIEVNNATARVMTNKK"}
{"Sequence": "GGACGCAGGGAGUCUGGCUAGCGUUAAUAGGAAAGGUUGCUCGGCAGAGCUGCCCUGGAGUACUGACUUGUCUCUCCCUCCUUUGUCAAGGUCCAUGUUUUUCUGGCUCU", "RBNS enrichment (R)": 0.28}
{"Sequence": "ACUCUUAACUUCUUAGUGCCUCAGUUUUCCUUUGGGGUAUACUUCACAAGGUAUCAGAAGUACUUUCAGUCUACAGGUCUCUAUGUCCACAUAACUAAGGAAUGCCUAAC", "RBNS enrichment (R)": 0.278}
{"Sequence": "ACAGUAUCUGGUUUUUAAAAUAUUUGCUAUGUAGUAAUGGGCAUUUUAAGAUAUAGUUAAGAUAUAAAAGAAUGGCAGAAUGCGAUUGAUUCCUUCCUGUCGAGUUAAAU", "RBNS enrichment (R)": 0.419}
{"Sequence": "AGGUACCCACGCCACAGGCCUCAGGAUGGCUUUUUGUCUGAGGGCCUCAUUAGGCCCAGACUGCUGCUGCUGGUACCAGUCUCCUGAGACACUGCCUCCCUGGAGCCCAU", "RBNS enrichment (R)": 0.337}
{"Sequence": "AUGAAAAAGCCCAUCUCCUGUGUCCCCAUUGCUCCUUCCCCUUAGCCUCGACAUUUCAAGUUGCGGUGUGUGACGGAGGUGGCUGCCGAACGAGAAGAGAUGCCACAGUG", "RBNS enrichment (R)": 0.34}
{"Sequence": "AAUGGAAGUUAGGUGAGGAGUUGAAGGUUGGUUUCUUGCGCUGUGCUUCCUUGGCUUGGGGGAGGGGGCAUCCGUCCCCCUCUGUGUGAACACAGCUCACCGCGUCACCU", "RBNS enrichment (R)": 0.57}
{"Sequence": "CAGAUCCCUGCCCAUGCUGUUCCCCUUAGCAGCCUGCCUGUUCAUAGAGCGUUUCCCCUCUUGCUAACUCCCCAUUUUCUCCGUGAGCUCUGACUCCUAUUUAUCAUAUA", "RBNS enrichment (R)": 0.837}
{"Sequence": "AGACCCCGUCUCUACAAAAAAAAUUUAAAAAUUAGCUGAGCAUGGUGGCAUGUGCCAGUAGUCCCAGCUACUCGAAAGGCUAAGACUGGAGGAUCGCUUGAGCCAAUGAG", "RBNS enrichment (R)": 0.559}
{"Sequence": "GCAAGAUAUUAAAAUGUAUUUCUAAAUCCUCCUUGGUUUCAAUCAUGAAUAAACUUAUUAGCAAUUUAAAAUGUUGUUUGAAAUAAUUUGCAGGUACUUUAUAGAUUCUG", "RBNS enrichment (R)": 0.475}
{"Sequence": "UCAUAUUGUUUUUUCUAACAUGGCUUCAUUAAACGUUUAAGUAUUUUAAAACUAUGUAAUAUUUGGACCAGAUGUUGUGAAUAACAGUAGAGAAAGCUAUUUUAUUCUGU", "RBNS enrichment (R)": 0.446}
{"Sequence": "AGGCCCGCUUUGAUAUUCAUUCAGUCUGUAGUAGUAACUUCAGAAAGACCUGGAGGACCUUUCCCCUAGGCACCUACACUCCUCCAUUGUCUGUCUAUGUUGUGCCUUAG", "RBNS enrichment (R)": 0.46}
{"Sequence": "GUGUACCGUGUAAAGUGGGGAUGGGGUAAAAGUGGUUAACGUACUGUUGGAUCAACAAAUAAAGGUUACAGUUUUGUAAGAGAAGUGAUUUGAAUACAUUUUUCUGGAAC", "RBNS enrichment (R)": 1.48}
{"data": "Block 4", "target": "Sal-like protein 4, full length isoform A (SALL4, Homo sapiens, UniProt Q9UJQ4, residues 1-1053)", "method": "universal PBM", "molecule type": "double-stranded DNA, one strand shown", "medium": "in vitro", "tested at": "600 nM", "setting": "8-mer, flanks averaged, mean of replicates", "reading": "higher = stronger binding", "sequence of UniProt Q9UJQ4 (whole entry, looked up)": "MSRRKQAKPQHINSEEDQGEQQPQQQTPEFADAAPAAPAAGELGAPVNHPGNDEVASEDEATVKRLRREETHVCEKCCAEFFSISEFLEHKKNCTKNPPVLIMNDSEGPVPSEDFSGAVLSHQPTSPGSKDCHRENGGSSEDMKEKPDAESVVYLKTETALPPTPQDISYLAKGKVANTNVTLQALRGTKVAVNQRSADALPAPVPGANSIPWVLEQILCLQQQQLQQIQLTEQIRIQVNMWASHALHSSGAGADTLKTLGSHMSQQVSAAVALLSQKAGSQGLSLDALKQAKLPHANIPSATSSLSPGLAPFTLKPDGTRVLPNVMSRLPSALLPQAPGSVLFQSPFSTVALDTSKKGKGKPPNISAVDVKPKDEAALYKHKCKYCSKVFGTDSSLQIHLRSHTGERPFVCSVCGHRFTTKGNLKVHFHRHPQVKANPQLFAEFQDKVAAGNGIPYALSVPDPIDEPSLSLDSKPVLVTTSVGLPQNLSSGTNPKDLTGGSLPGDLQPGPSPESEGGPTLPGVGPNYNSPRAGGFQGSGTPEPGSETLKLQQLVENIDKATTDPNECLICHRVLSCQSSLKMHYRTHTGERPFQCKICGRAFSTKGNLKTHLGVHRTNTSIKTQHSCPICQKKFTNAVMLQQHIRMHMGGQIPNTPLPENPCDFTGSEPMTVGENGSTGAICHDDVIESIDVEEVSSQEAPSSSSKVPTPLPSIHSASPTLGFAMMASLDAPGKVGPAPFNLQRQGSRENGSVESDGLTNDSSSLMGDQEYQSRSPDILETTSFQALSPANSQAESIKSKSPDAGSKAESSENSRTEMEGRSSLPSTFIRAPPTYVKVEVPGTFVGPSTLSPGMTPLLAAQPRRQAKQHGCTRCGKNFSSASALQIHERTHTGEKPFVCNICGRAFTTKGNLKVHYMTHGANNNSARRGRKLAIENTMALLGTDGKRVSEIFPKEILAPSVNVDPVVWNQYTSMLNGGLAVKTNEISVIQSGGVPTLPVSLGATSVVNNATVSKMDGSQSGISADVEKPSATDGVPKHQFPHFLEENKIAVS"}
{"Sequence": "ACGGGCAC", "E-score": -0.236}
{"Sequence": "GTTTCAAA", "E-score": 0.176}
{"Sequence": "AGAGGTTG", "E-score": -0.0862}
{"Sequence": "CATACCAG", "E-score": -0.0541}
{"Sequence": "ACAGTTTC", "E-score": 0.0899}
{"Sequence": "AGGTTAGC", "E-score": -0.18}
{"Sequence": "AGAGCACA", "E-score": -0.0885}
{"Sequence": "ACGGCCTA", "E-score": -0.191}
{"Sequence": "TTAGACAA", "E-score": 0.21}
{"Sequence": "AGACATGC", "E-score": 0.0202}
{"Sequence": "CCTAGCAG", "E-score": -0.159}
{"Sequence": "ATTGCGTC", "E-score": 0.0311}
{"Sequence": "AGCACGCT", "E-score": -0.262}
{"Sequence": "ATGCTATA", "E-score": 0.255}
{"Sequence": "CCCACACC", "E-score": -0.139}
{"Sequence": "ACAGAAAA", "E-score": 0.141}
{"Sequence": "GAATTCAC", "E-score": -0.061}
{"Sequence": "CCCAAGCC", "E-score": -0.387}
{"Sequence": "GTGCACCA", "E-score": -0.0978}
{"Sequence": "AAGTCTAT", "E-score": 0.219}
{"Sequence": "ATTGCAGA", "E-score": 0.216}
{"Sequence": "AATCCGGC", "E-score": -0.31}
{"Sequence": "ACCGGTTA", "E-score": -0.0261}
{"note": "Repeated from above (block 2):"}
{"Sequence": "CATCACTC", "E-score": -0.153}
{"Sequence": "CTAACGAA", "E-score": 0.0467}
{"Sequence": "GCCTATCA", "E-score": -0.106}
{"Sequence": "CCTTGGGC", "E-score": 0.00122}
